# Published values pooled from the literature.
# Parts stem from different laboratories: compare values within a part only.
# UniProt Q8IW41, sequence (whole entry, looked up): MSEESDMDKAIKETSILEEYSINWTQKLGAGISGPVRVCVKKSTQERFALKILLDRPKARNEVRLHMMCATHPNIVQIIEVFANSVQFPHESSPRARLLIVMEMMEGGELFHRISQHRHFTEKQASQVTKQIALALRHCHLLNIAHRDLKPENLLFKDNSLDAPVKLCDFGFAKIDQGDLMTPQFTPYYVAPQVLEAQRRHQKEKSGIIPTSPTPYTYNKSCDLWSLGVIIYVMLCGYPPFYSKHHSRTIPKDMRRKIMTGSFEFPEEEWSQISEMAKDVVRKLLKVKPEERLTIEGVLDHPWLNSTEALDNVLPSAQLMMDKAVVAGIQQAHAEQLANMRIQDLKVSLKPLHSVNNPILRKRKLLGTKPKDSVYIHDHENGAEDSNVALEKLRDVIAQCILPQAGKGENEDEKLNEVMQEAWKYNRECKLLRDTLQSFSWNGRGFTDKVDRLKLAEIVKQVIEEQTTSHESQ
# UniProt Q9NYY3, sequence (whole entry, looked up): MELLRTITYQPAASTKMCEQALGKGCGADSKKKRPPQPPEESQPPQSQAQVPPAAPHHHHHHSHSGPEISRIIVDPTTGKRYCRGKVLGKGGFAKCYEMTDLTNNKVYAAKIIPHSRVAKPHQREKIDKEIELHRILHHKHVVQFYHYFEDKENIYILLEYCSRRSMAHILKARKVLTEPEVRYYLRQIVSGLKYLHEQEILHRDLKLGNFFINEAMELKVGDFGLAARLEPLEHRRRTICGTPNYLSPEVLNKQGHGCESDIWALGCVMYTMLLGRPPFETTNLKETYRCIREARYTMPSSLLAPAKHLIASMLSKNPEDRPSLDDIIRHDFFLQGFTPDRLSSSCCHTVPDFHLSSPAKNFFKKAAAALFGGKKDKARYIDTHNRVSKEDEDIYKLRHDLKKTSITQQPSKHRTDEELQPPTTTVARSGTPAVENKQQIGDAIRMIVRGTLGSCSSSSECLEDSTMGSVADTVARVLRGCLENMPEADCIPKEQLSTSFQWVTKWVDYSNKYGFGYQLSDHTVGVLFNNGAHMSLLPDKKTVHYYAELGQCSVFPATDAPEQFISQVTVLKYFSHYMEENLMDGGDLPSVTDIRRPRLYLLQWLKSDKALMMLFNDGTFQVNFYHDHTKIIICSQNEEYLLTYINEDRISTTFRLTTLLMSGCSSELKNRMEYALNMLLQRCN
# UniProt Q9Y243, sequence (whole entry, looked up): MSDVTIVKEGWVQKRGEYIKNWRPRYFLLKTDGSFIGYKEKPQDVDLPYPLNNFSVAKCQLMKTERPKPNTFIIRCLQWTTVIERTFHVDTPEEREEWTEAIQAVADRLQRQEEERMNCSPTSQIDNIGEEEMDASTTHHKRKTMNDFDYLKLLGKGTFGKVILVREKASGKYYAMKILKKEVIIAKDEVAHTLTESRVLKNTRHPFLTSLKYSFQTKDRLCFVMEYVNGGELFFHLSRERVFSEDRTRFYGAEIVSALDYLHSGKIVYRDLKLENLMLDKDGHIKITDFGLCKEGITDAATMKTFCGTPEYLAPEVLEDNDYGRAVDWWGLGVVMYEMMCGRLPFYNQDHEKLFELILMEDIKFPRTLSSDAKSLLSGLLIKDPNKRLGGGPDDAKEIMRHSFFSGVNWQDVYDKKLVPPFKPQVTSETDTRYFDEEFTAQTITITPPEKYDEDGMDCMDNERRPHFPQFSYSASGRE
# UniProt Q8NFD2, sequence (whole entry, looked up): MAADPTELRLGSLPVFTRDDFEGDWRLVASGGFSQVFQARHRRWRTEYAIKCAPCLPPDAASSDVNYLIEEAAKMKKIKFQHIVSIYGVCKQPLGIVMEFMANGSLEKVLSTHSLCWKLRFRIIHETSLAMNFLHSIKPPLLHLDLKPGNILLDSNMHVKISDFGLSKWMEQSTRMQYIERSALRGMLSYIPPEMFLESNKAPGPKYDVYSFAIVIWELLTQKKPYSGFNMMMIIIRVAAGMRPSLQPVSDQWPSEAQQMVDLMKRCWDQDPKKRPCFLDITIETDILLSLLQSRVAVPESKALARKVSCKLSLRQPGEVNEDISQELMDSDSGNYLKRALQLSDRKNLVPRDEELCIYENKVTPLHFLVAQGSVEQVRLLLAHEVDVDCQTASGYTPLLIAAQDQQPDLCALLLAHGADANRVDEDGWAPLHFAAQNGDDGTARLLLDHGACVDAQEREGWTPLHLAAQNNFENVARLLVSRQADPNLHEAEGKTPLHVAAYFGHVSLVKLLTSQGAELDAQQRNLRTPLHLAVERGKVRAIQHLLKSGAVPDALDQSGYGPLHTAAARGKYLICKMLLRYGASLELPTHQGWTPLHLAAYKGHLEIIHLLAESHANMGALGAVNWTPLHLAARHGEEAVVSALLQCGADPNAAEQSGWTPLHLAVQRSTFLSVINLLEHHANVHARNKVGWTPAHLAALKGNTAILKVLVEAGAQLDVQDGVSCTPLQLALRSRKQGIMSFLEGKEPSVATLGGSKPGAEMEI
# UniProt Q6DT37, sequence (whole entry, looked up): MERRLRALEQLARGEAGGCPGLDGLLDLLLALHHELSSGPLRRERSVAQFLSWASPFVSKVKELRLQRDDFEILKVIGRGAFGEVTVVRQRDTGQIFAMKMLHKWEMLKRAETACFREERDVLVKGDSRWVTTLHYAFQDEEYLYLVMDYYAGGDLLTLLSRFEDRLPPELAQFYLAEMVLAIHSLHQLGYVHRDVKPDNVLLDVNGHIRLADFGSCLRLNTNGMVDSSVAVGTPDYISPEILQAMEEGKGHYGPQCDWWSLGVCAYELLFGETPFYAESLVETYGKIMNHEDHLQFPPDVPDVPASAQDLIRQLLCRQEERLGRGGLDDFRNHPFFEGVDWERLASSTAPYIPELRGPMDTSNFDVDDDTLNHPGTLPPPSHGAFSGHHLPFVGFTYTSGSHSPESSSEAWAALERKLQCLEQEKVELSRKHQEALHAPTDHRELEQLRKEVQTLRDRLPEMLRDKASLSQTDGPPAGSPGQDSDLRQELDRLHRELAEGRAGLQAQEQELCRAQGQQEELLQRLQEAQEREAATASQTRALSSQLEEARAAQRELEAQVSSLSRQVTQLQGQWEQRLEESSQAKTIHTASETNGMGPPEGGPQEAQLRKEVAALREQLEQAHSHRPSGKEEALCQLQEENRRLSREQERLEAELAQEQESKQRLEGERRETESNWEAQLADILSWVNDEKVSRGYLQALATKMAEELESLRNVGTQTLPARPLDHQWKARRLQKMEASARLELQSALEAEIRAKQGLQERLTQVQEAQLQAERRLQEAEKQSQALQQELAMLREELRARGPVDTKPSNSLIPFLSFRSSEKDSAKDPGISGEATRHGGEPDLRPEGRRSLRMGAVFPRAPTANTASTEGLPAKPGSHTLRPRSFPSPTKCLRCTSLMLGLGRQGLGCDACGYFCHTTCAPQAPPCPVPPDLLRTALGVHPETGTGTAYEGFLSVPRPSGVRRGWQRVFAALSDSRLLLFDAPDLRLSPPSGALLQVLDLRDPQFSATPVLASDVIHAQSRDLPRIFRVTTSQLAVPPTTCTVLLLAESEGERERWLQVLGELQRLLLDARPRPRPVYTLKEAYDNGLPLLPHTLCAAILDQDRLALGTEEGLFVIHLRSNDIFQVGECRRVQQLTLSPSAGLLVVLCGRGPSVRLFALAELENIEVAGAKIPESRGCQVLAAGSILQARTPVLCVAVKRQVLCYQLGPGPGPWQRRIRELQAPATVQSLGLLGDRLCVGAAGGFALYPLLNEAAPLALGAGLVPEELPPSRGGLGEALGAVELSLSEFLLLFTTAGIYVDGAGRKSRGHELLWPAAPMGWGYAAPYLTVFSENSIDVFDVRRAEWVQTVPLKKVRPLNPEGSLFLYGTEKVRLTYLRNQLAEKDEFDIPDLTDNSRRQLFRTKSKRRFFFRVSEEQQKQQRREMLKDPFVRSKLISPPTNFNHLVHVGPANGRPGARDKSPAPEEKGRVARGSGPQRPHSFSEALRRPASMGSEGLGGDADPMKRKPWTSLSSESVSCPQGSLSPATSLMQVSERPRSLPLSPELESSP
# UniProt P16591, sequence (whole entry, looked up): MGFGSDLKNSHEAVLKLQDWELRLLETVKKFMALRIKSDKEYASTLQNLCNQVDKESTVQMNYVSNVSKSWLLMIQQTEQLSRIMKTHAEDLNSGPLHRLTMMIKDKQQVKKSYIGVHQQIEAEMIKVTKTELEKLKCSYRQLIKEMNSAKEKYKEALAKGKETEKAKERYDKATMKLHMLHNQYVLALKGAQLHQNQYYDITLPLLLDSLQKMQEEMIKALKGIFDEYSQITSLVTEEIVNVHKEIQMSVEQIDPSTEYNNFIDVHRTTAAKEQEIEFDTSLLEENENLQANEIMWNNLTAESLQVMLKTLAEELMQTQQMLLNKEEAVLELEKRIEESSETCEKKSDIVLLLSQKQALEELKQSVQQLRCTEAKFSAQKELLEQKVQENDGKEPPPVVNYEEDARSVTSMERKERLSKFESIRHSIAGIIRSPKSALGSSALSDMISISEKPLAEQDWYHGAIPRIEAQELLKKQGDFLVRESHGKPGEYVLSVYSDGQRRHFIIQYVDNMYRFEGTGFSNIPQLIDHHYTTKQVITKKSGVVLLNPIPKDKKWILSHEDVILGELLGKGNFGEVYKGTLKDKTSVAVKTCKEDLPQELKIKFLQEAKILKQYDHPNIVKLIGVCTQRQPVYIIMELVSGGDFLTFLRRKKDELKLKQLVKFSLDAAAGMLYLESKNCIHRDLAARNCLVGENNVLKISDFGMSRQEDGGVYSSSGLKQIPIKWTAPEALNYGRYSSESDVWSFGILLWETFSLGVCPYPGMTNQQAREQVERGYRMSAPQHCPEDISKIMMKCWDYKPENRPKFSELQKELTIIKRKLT
# UniProt P11802, sequence (whole entry, looked up): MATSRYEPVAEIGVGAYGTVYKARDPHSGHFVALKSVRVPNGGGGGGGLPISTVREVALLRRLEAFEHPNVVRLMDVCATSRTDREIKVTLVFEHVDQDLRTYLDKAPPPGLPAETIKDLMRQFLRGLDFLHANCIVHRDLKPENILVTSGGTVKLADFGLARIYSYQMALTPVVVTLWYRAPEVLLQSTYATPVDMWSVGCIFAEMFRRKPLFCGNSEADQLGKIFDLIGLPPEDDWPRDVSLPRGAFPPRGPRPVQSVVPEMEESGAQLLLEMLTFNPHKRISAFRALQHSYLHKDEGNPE

# Sample 1
# Compound: CNCc1ccccc1-c1csc([C@H](C)Nc2nc(C)nc3cc(OC)c(OC)cc23)c1
# Concentration: 1 µM
target,effect on,method,remaining binding [%]
"cAMP-dependent protein kinase catalytic subunit PRKX (PRKX, Homo sapiens, UniProt P51817)",cell-free assay,competition with immobilised ligand,76
"Cyclin-dependent kinase 4 (CDK4, Homo sapiens, UniProt P11802)",cell-free assay,competition with immobilised ligand,100
"Mitogen-activated protein kinase kinase kinase kinase 3 (MAP4K3, Homo sapiens, UniProt Q8IVH8)",cell-free assay,competition with immobilised ligand,100
"Serine/threonine-protein kinase PAK 4 (PAK4, Homo sapiens, UniProt O96013)",cell-free assay,competition with immobilised ligand,100
"Ankyrin repeat and protein kinase domain-containing protein 1 (ANKK1, Homo sapiens, UniProt Q8NFD2)",cell-free assay,competition with immobilised ligand,90
"Tyrosine-protein kinase FRK (FRK, Homo sapiens, UniProt P42685)",cell-free assay,competition with immobilised ligand,100
"Serine/threonine-protein kinase MRCK gamma (CDC42BPG, Homo sapiens, UniProt Q6DT37)",,competition binding,100
"Receptor-type tyrosine-protein kinase FLT3 (FLT3, Homo sapiens, UniProt P36888, N841I)",cell-free assay,competition with immobilised ligand,100
"Cyclin-dependent kinase 2 (CDK2, Homo sapiens, UniProt P24941)",cell-free assay,competition with immobilised ligand,91
"Receptor-type tyrosine-protein kinase FLT3 (FLT3, Homo sapiens, UniProt P36888, D835H)",cell-free assay,competition with immobilised ligand,74
"LIM domain kinase 1 (LIMK1, Homo sapiens, UniProt P53667)",cell-free assay,competition with immobilised ligand,100
"MAP kinase-activated protein kinase 5 (MAPKAPK5, Homo sapiens, UniProt Q8IW41)",cell-free assay,competition with immobilised ligand,100
"Tyrosine-protein kinase Fer (FER, Homo sapiens, UniProt P16591)",cell-free assay,competition with immobilised ligand,100

# Sample 2
# Organism: Plasmodium berghei
# Mode: inhibitor
# Cells: Huh-7
# Strain: liver stage
# Concentration: 10 µM
# Time: 24 h
# Reference: untreated control
SMILES,infection rate [%]
CCCCc1nc(Cl)c(CO)n1Cc1ccc(-c2ccccc2-c2nnn[nH]2)cc1,113
CC1(C)O[C@@H]2C[C@H]3[C@@H]4C[C@H](F)C5=CC(=O)C=C[C@]5(C)[C@@]4(F)[C@@H](O)C[C@]3(C)[C@]2(C(=O)CO)O1,90.6
O=C(c1ccccc1)c1ccc2n1CCC2C(=O)O (centres unmarked),113

# Sample 3
# SMILES: O=C1c2ccccc2-c2nc3nnnn3nc21
# Effect on: enzyme activity
# Mode: inhibitor
# Concentration: 0.5 µM
# Reference: control
target,remaining activity
"Interleukin-1 receptor-associated kinase 4 (IRAK4, Homo sapiens, UniProt Q9NWZ3)",96.9%
"Mast/stem cell growth factor receptor Kit (KIT, Homo sapiens, UniProt P10721)",22.2%
"Cyclin-dependent kinase 9, with cyclin T1 (CDK9, Homo sapiens, UniProt P50750)",97%
"Serine/threonine-protein kinase Chk1 (CHEK1, Homo sapiens, UniProt O14757)",112%
"Serine/threonine-protein kinase PLK2 (PLK2, Homo sapiens, UniProt Q9NYY3)",37.3%
"RAC-gamma serine/threonine-protein kinase (AKT3, Homo sapiens, UniProt Q9Y243)",81.2%

# Sample 4
# Structure (SMILES): CC(C)n1cnc(-c2ccc(F)cc2)c1-c1ncc(C(=O)Nc2ccc(N3CCN(C)CC3)cc2)[nH]1
# Species: idiopathic pulmonary fibrosis patients
# Sample: plasma
route,dose,time,notes,Cmax [ng/mL]
,60 mg once daily,week 0,median,242
oral,30 mg once daily,week 12,arithmetic mean,111
,30 mg twice daily,week 0,arithmetic mean,114

# Further values, each from its own experiment
SMILES,target,effect on,mode,method,measurement,value
COc1cc(C(=O)N2CCC(N3CCN(C)CC3)CC2)ccc1Nc1ncc2c(n1)N(C)c1ccccc1C(=O)N2C,"Serine/threonine-protein kinase PLK1 (PLK1, Homo sapiens, UniProt P53350)",kinase activity,inhibitor,Invitrogen SelectScreen,IC50,9.83 µM
